# Published values of several laboratories.
# Numbered parts are unrelated; each lists some results of a single study.

# Block 1
# Target: Histone acetyltransferase KAT6A, both winged helices, GST fusion (KAT6A, Homo sapiens, UniProt Q92794, residues 1-181)
# Technique: protein binding microarray
# Form: double-stranded DNA, one strand shown
# Medium: in vitro
# Concentration: not given
# Notes: 8-mer, flanks averaged, mean of 2 arrays, mostly near background
# Reference: not given
# Direction: higher = stronger binding
# Construct (chain): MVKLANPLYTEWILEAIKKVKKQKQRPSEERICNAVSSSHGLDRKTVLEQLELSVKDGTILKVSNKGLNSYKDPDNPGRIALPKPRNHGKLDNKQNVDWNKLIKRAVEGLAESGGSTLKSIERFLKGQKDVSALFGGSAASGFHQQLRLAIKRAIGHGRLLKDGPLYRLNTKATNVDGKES
Sequence,E-score
AGCGATAG,-0.0636
CTACTGCA,-0.189
CAGCGACA,-0.119
TCTGTACA,0.0625
CACAAAGC,0.0501
GACCAGTA,-0.0192
CACTCATC,-0.146
CACAGCTG,-0.252
TGTAGAAA,-0.216
AACGTTGC,-0.00779
AGGTGGGG,-0.262
AAACGGAT,0.156
ATCAACAT,-0.138
ATTTAATG,0.0323
GATAATGC,-0.00713
ACCCGTAG,0.173
AGCAGTCG,0.0444
GAGGTGTA,-0.0844
CTACTAGA,-0.171
AGAACATC,-0.0546
CTACTTAA,-0.0973
CATTATCC,0.0865
CTAACACA,-0.0479
CTACCCAA,-0.166
AAGGGGCT,-0.186

# Block 2
# Target: Interferon regulatory factor 7, full length, phosphomimetic (IRF7, Homo sapiens, UniProt Q92985, residues 1-503, S101K/S471D/S472D/S475D/S476D/S477D/S483D/S484D/S487D)
# Technique: protein-binding microarray
# Form: double-stranded DNA, one strand shown
# Medium: in vitro
# Concentration: 250 nM
# Notes: 60-bp whole probe
# Together with: salmon DNA 0.4 mg/ml
# Reference: random background probes
# Direction: higher = stronger binding
# Shared flanks, not repeated: GCCTAGCAC … GTCTTGATTCGCTTGACGCTGCTG
# Construct (chain): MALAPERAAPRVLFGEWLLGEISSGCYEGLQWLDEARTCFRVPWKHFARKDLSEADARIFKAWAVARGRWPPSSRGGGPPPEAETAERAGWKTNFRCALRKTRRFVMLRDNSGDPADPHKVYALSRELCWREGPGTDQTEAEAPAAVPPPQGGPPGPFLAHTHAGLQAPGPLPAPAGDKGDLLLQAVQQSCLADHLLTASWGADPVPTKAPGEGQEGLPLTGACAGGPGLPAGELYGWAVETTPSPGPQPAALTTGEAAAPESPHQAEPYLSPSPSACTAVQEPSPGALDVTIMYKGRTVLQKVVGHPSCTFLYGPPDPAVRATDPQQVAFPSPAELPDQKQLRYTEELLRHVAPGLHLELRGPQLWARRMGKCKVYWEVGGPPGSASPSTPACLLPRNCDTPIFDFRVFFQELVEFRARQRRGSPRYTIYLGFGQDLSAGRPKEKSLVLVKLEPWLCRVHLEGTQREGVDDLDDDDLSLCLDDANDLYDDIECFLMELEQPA
Sequence,log fluorescence [z-score]
TTATAACTGAGTCTCGATTAGTGCTAG,1.39
TTAGATTTTAGTATCGATTAGTGCTAG,1.41
TAACCTTGAACTTTGGCCTCGTGCTAG,-0.0307
GAGGGTTTCGGGACTGGGGACGTGCTA,2.01
GACAGACTGGGGTTTCGGGACGTGCTA,1
TTAGAACTGAGTTTCTATTAGTGCTAG,2.65
GGCTTCCTCTTTCTCTGCTAGTGCTAG,1.53
TTAGAACTGAGTTTTGATTAGTGCTAG,0.48
TCATGCTTCTGTATTCAACTGTGCTAG,-0.0971
TTAGAGCTCAGTATCGATTAGTGCTAG,0.0431
TCAATTCTAGCCTATAGAACTGTGCTA,0.18
TTCGATATCGGGTTTCGATTAGTGCTA,7.16
TTCTTTATGTACTCTCTCCATGTGCTA,0.603
GACGTTTTCGGGACTGGGGACGTGCTA,0.934
TTTGCTTTCCTTTATGTACTGTGCTAG,1.13
TATTATATCTGTGTTATTAAGTGCTAG,0.717
GACGGACTGGGCACTGGGGACGTGCTA,-0.692
TACTTTCTGAATGCTCCCCCTGTGCTA,2.1
GCCGGACTGGGGACTGGGGACGTGCTA,-0.757

# Block 3
# Target: RNA binding protein fox-1 homolog 2, RRM domain, GST-SBP tag (RBFOX2, Homo sapiens, UniProt O43251-10, residues 100-194)
# Technique: RNA Bind-n-Seq
# Form: RNA
# Medium: in vitro
# Concentration: 365 nM
# Notes: natural RNA segment, single round, ends assumed
# Reference: no-protein control
# Direction: higher = stronger binding
# Shared flanks, not repeated: GGGAGUUCUACAGUCCGACGAUC … UGGAAUUCUCGGGUGCCAA
# Target sequence (chain): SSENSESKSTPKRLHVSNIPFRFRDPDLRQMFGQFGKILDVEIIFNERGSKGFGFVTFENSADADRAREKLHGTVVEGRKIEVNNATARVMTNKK
Sequence,RBNS enrichment (R)
AUGACCAGAAAGGAUGGAAUGGCUUAAGUAAACUAAGGGUUCACUUCUAGAGCUGAGAAGCAGGGUCAAAGCACAAUACUGGGCAAUUCAGAGCAUGGUUAGAAGAGGAA,2.16
UCUGACAGGUAAAAUGCUAAAAUAAGCUACCUGUAAUAAGUGUGGAUUAUAUUUUUGGGUUUUGUAGAAUAUUGCAAAUUAACCACACAAAAAAUGUUUAAUUUAUGCAA,1.09
CAGGGACAGGGCCUCUUUGGAAUUAGGCAGAACGACUGCCACAGCUCAGACCUCAGAGAUUGUGAAGGCAGUGCCAAGCUCACAGCAGUUCAGGACCAUCCCAGAAAGGG,1.62
CCCGGCCCAACCCAGCCCAGCCCAGCUCAGCUCAGCUACUGCCAAGGGCAGGACCAAUGGCUGAGCCUCGUGUCCAGACUCAGAGGGCUGGAUUUUGGUUCCCUUGUAAA,0.368
GUCUUGAGAGCACAGACUAACACUUACCAAAUGAGGGAACUCUUGGCCCAUACUAAGGCUCUUCUGGGCUCCAGCACUCUUAAGUUAUUUUAAGAAUUCUCACUUGGCCU,0.154
GUCCUGAGUAGGAGUCCAGGACUCCCACUGUCUCAAUCUGCAAAUUGUUCCUAUCCAGGUUCAGGGCCUUCAGGGGGCCUCUUUUCAUUUUCUCCCACAGGCCUCUCUUU,0.814
UGUGAAACCCCAUCUCUGCCAAAAAUACAAAAGUUAGCCGGGCGUAGUGGCACAUGCCUGUAAUCCCAGCUACCCGGGGAGGCUGAGGCAGGAGAAUUGCUUGAACUCAG,0.565
UUGAAAGUGAAGAUGAUGCCCUAAUUCCUGGUAAGGAUUUGGGGCAUAGUUUUUUGUUUUUUUGAGACGGAGUUUCGCUCUUGUUGCCCAAGCUGGAGUGCAGUGGCGCG,0.265

# Block 4
# Target: Fragile X messenger ribonucleoprotein 1, C-terminal low-complexity region (Fmr1, Mus musculus, UniProt P35922)
# Technique: RNA Bind-n-Seq
# Form: RNA
# Medium: in vitro
# Concentration: 200 nM
# Notes: whole 134-nt RNA, ends assumed
# Together with: 150 mM LiCl
# Reference: input library
# Direction: higher = stronger binding
# Each molecule: 7-deaza-guanosine replaces G
# Shared flanks, not repeated: GGGAGUUCUACAGUCCGACGAUC … UGGAAUUCUCGGGUGUCAAGG
Sequence,log2 enrichment
UCCUGUGCUACACAUCGUAUGUACCGAAUCGGGAAAAAGGGUUUUUGGGUUUUUUUGGGAAAGUAUUAUGUUACGCCGUUCGGAUCUGCA,-2.17
CACAGACAACACGCACCCACACAGACACAGAGGGGAGGGGUUGGGAUGGGGACAGGGUGCACAGCAGGGCGGGGUAGGACCCCAGCCCCU,0.0459
UCCUGUGCUACACAUCGUAUGUACCGAAUCGGGGUUUUUUUGGGGUUUUUGGGGAGGGGAAAGUAUUAUGUUACGCCGUUCGGAUCUGCA,-0.338
UGGCCCUGGUGGCAUGCGGAGAGGAAGAGGUGGCCUCAUGGAUCGUGGUGGUCCCGGUGGAAUGUUCAGAGGUGGCCGUGGUGGAGACAG,-0.152
AAGUCCUGUGCUACACAUCGUAUGUACCGAAUCGGGAAAAAGGGAGGGAAAAAGGGAAAGUAUUAUGUUACGCCGUUCGGAUCUGCACUU,-0.257
GUCCUGUGCUACACAUCGUAUGUACCGAAUCGGGGUGGGGUUUUUUUGGGGUUUGGGGAAAGUAUUAUGUUACGCCGUUCGGAUCUGCAC,0.36
UAAUUGAAGAACCCAUUUUGCUCAUUUUAGGCAUCGUUAAAGAAUCUGGAGUGAAGCACAAGGGAUUGAUUGAAAUACCCAAUCUUUCUG,-1.3
AGUCCUGUGCUACACAUCGUAUGUACCGAAUCGGGGUGGGGUUUUUUUGGGGUGGGGAAAGUAUUAUGUUACGCCGUUCGGAUCUGCACU,0.0755

# For quick reference, copied from above (block 1):
Sequence,E-score
CACAAAGC,0.0501
GACCAGTA,-0.0192
CACTCATC,-0.146
CACAGCTG,-0.252
